Assay results from different studies.
Parts stem from different laboratories: compare values within a part only. Several values in a cell are separate wells, animals, samples, runs or records. Substitutions count along the parent as printed.

Study 1
Target: Ras GTPase-activating protein-binding protein 1, C-terminal RGG region (G3BP1, Homo sapiens, UniProt Q13283)
Chain of UniProt Q13283 (whole entry, looked up): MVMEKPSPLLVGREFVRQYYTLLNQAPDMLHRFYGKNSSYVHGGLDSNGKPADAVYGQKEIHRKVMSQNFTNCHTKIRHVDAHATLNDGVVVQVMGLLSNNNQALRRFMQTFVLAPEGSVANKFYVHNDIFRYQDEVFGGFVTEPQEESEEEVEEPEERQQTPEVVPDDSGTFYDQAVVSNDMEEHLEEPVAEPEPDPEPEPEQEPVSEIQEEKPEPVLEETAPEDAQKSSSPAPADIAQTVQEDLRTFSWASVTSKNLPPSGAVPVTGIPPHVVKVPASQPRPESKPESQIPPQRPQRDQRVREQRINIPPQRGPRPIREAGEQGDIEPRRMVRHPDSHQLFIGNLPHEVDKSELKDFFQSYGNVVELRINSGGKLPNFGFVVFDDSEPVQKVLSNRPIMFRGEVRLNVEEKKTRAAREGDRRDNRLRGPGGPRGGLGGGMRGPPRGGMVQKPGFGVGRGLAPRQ
Method: RNA Bind-n-Seq
Form: RNA
Sample: in vitro
Tested at: 1 µM
Notes: whole 134-nt RNA, ends assumed
With: 150 mM KCl
Relative to: input library
Reading: higher = stronger binding
All sequences stand within: GGGAGUUCUACAGUCCGACGAUC … UGGAAUUCUCGGGUGUCAAGG
`UCCUGUGCUACACAUCGUAUGUACCGAAUCGGGGUUUUUGGGGAAAAAGGGGUUUGGGGAAAGUAUUAUGUUACGCCGUUCGGAUCUGCA` has a log2 enrichment of 2.63.
The log2 enrichment of `CCUCAAGUCCUGUGCUACACAUCGUAUGUACCGAAUCGGGGAGGAGGAGGGGAAAGUAUUAUGUUACGCCGUUCGGAUCUGCACUUCCAG` is reported as -0.379.
`CUGUGCUACACAUCGUAUGUACCGAAUCGGGAAAAAAAGGGAAAAAAAGGGAAAAAAAGGGGAAAGUAUUAUGUUACGCCGUUCGGAUCU` gave a log2 enrichment of -1.27.
`AAGUCCUGUGCUACACAUCGUAUGUACCGAAUCGGGUUUUUGGGUUUUUGGGUGGGAAAGUAUUAUGUUACGCCGUUCGGAUCUGCACUU` gave a log2 enrichment of 0.171.
For `UGUACUGAUGACAGCUAAUCUCUGAAUCUUUUUCCUCCAGGAUGUUCCUUCAGGAGGAAGCAGCACUAAAAGCACUCUGAGUCAAGAUGA`, the log2 enrichment was -1.69.
For `CACAGACAACACGCACCCACACAGACACAGAGGGAAGGGGUUGGGAUGGGGACAGGGUGCACAGCAGGAAAGGGUAGGACCCCAGCCCCU`, the log2 enrichment was -0.238.
`GUCCUGUGCUACACAUCGUAUGUACCGAAUCGGGAAAAAAAGGGUUUUUUUGGGAGGGAAAGUAUUAUGUUACGCCGUUCGGAUCUGCAC` gave a log2 enrichment of -0.171.
With `GUCCUGUGCUACACAUCGUAUGUACCGAAUCGGGUGGGUUUUUUUGGGAAAAAAAGGGAAAGUAUUAUGUUACGCCGUUCGGAUCUGCAC` the log2 enrichment was -0.368.
For `UGGCCCUGGUGGCAUGGGGGGAGGAAGAGGUGGCCUCAUGGAUCGUGGUGGUCCCGGUGGAAUGUUCAGAGGUGGCCGUGGUGGAGACAG`, the log2 enrichment was 2.32.
The log2 enrichment of `CUGUGCUACACAUCGUAUGUACCGAAUCGGGGAAAAAAAGGGGAAAAAAAGGAAAAAAAGGAAAGUAUUAUGUUACGCCGUUCGGAUCUG` is reported as -1.36.
`CACAGACAACACGCACCCACACAGCCACAGAGGGAAGGGGUUGGGAUGGGGACAGGGUGCACAGCAGGGCGGGGUAGGACCCCAGCCCCU` has a log2 enrichment of -0.148.
With `GUCCUGUGCUACACAUCGUAUGUACCGAAUCAAACCCAAACCCCCCCAAAUUUUUAAAAAAGUAUUAUGUUACGCCGUUCGGAUCUGCAC` the log2 enrichment was -0.843.
The log2 enrichment of `UCCUGUGCUACACAUCGUAUGUACCGAAUCGGGGAAAAAAAGGGGUGGGGAAAAAGGGGAAAGUAUUAUGUUACGCCGUUCGGAUCUGCA` is reported as 1.17.
`CACAGACAACACGCACCCACACAGACACAGAGGGAAGGGGUUGGGAUGGGGACAGGGUGCACAGCAGGGCGGGGUAGGUCCCCAGCCCCU` gave a log2 enrichment of -1.06.

Study 2
Target: Interferon regulatory factor 7, full length, phosphomimetic (IRF7, Homo sapiens, UniProt Q92985, residues 1-503, S101K/S471D/S472D/S475D/S476D/S477D/S483D/S484D/S487D)
Chain of UniProt Q92985 (whole entry, unmodified, looked up): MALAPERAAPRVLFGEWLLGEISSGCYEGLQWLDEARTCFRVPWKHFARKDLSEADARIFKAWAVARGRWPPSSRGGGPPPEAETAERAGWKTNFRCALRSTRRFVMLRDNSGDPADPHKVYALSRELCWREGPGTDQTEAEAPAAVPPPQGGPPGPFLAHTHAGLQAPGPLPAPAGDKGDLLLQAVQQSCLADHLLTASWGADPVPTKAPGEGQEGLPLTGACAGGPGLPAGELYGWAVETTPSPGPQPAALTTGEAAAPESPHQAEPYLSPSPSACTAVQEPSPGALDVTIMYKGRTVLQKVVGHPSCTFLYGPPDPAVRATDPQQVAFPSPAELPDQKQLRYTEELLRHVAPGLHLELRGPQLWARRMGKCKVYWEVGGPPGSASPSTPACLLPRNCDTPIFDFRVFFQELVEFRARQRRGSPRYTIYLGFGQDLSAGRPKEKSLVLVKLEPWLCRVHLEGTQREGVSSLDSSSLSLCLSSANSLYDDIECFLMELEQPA
Method: protein-binding microarray
Form: double-stranded DNA, one strand shown
Sample: in vitro
Tested at: 250 nM
Notes: 60-bp whole probe
With: salmon DNA 0.4 mg/ml
Relative to: random background probes
Reading: higher = stronger binding
All sequences stand within: GCCTAGCAC … GTCTTGATTCGCTTGACGCTGCTG
The log fluorescence of `TAAGATATCGGGTATCGATTAGTGCTA` is reported as 0.969 z-score.
With `TTAGGTAGCGGACTGGGTTAGTGCTAG` the log fluorescence was -0.604 z-score.
`TTTGATATCAGACTGGATTAGTGCTAG` gave a log fluorescence of -0.075 z-score.
With `TTATATATCAGTATCGATTAGTGCTAG` the log fluorescence was 1.26 z-score.
The log fluorescence of `GACGAACTGGGGATTCGAGACGTGCTA` is reported as -0.0314 z-score.
`TCATGTTTTTCATTGTTACTGTGCTAG` gave a log fluorescence of 1.32 z-score.
`TTAGCACTGCTACTGCTTTAGTGCTAG` has a log fluorescence of -0.545 z-score.
For `TTAGATATCGGGTGTCGATTAGTGCTA`, the log fluorescence was -0.111 z-score.
For `TTAGGTATCGAGTTTCGGTTAGTGCTA`, the log fluorescence was 7.99 z-score.
With `AACTCTCTAATTTTGAGACTGTGCTAG` the log fluorescence was 0.178 z-score.
`GACGATCTCAGACTGGTGACGTGCTAG` has a log fluorescence of -0.288 z-score.
The log fluorescence of `TTGGGTTTCGGGACTGGGTTAGTGCTA` is reported as 3.16 z-score.
The log fluorescence of `GACGATTCTAGTTTCGAGACGTGCTAG` is reported as 5.39 z-score.
For `AACGGTTTCGGGTTTCGGGACGTGCTA`, the log fluorescence was 12.5 z-score.
The log fluorescence of `TCAGGTTTCGGTTCCGGTTAGTGCTAG` is reported as 12.9 z-score.
With `GACGGACTGGACTATGGGGACGTGCTA` the log fluorescence was -0.301 z-score.
`TTAGAACTGAGTCTCGAATAGTGCTAG` has a log fluorescence of 0.244 z-score.
`TTGCATCTGGGTATTTTTCTGTGCTAG` has a log fluorescence of -0.626 z-score.
`TTAGGACTGCTTTTCCTGTAGTGCTAG` gave a log fluorescence of 0.976 z-score.
The log fluorescence of `TTCAGTTTTCCTCTGTCATTGTGCTAG` is reported as 1.3 z-score.
With `GACGAACTGGGGTATCGAAACGTGCTA` the log fluorescence was -0.14 z-score.
The log fluorescence of `TTAGAAATCAGTCTCGATTAGTGCTAG` is reported as 1.7 z-score.
The log fluorescence of `TCAGTGCTCATTTTTTTACTGTGCTAG` is reported as -0.769 z-score.

Study 3
Target: RING finger protein unkempt homolog, zinc fingers 1-6, GST-SBP tag (UNK, Homo sapiens, UniProt Q9C0B0, residues 30-357)
Method: RNA Bind-n-Seq
Form: RNA
Sample: in vitro
Tested at: not given
Notes: RNA with constant flanks, human and mouse sites, ends assumed
Relative to: input RNA pool
Reading: higher = stronger binding
All sequences stand within: GGGAGUUCUACAGUCCGACGAUC … CAACAGAGGAUUGAGCAUCA
Residues (chain): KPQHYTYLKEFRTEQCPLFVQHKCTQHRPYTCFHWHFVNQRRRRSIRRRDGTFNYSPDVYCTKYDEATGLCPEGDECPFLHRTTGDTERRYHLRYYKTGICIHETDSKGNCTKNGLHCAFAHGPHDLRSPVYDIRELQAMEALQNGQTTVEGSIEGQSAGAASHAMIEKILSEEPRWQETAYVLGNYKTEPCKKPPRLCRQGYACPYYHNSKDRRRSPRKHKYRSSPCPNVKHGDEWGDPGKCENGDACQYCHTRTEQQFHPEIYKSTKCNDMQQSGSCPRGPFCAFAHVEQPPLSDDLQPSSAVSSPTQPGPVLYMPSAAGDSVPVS
For `AGAACACUUCAAGUUGCGUUAGACAUUUCUUACCGAGCCCCAGGCCUGGCCGCGGUAACUGACUUUUACAUGGGAUUCUUUAACUAUUUGUACUUUUCAUGCCAGAAAAUAAAAAGUUCA`, the bound/input enrichment was 0.636 ratio.
With `GUAUCUUUAACUAGAAUCCUGAAAUGUUCAGAGCAGAGCUUAAUCGAAUUUUUUAAUAAGAUGAAGAAGUGGGAAGACAUGGCAAAUCUACCCCCACAUUUCAGAGAACGUACUGAGAGA` the bound/input enrichment was 0.491 ratio.
The bound/input enrichment of `AAUGGCAAUGGGGGACCUGGUCCCUAUGUGGGGCAAGCUGGCACUGCUACCCUUCCUAGGAACUUCCACUACCCUCCUGAUGGUUAUAGUCGCCACUAUGAAGAUGGUUAUCCAGGUGGC` is reported as 0.195 ratio.
`GCUAACCAGGCGUCCGCUACUUCAGAAGAGUGUACUGUCGCAUGGGGAGUCUGUAACCAUGCUUUUCACUUCCACUGCAUCUCUCGCUGGCUCAAAACACGACAGGUGUGUCCAUUGGAC` gave a bound/input enrichment of 0.0585 ratio.
For `UUCCCUGAAUUUCUGACAAUGAUGGCAAGAAAAAUGAAAGACACAGACAGUGAAGAAGAAAUUAGAGAAGCAUUCCGUGUGUUUGAUAAGGAUGGCAAUGGCUAUAUUAGUGCUGCAGAA`, the bound/input enrichment was 0.586 ratio.
The bound/input enrichment of `CAUUAUUACUCCAUUACUAUUAACUAUCGGAAAAAUGAACUGGAACAGAAGAUGUUGCUAAAUUUGCAUAAGAAGAGUUGGAUGGAAGGUUUGACACUUCAGGACUACAGUGAACAUUGU` is reported as 0.256 ratio.
`UGCUUGGUGCUGAUUUGUGAACCCAUUCCUCAUCCGUCAAAUAUUGAAAUUCCUUUAGAUAGCAAGACAUUUCUCAGUCGACACAGCCUCGAUAUGAAAUUUUCUUACUGUGAUGAAAGA` has a bound/input enrichment of 0.44 ratio.
With `GAUAUGAAGCACUGGCCCUUCAUGGUGGUGAAUGAUGCAGGCAGGCCCAAGGUCCAAGUGGAAUACAAAGGGGAGACAAAAAGUUUCUACCCAGAGGAAGUGUCCUCCAUGGUUCUGACA` the bound/input enrichment was 0.193 ratio.
For `CAGUCCAUACAGACUUGGGGGUGGUUUGGGGUAUUGCUGUGUGUUCUUUAUGCUUAUGUUCUUAGAGUAUGGUCAGAUGGGACAAGACCCCCUCCUGUCUUCUACAUGACAUGGAGAAAG`, the bound/input enrichment was 0.491 ratio.
`CAGAAUAAUAAGCUGAAUAGAAUCUGACCAUUGGCUUUCACCUGGCCAGGACCUUCUAUGUAGCUCUCCUUUUGUGGCCCAUGUGCUGCAUCCUCUGCCCUCAGUGUGCAACUGGCCCCC` has a bound/input enrichment of 0.296 ratio.
The bound/input enrichment of `GGCAGCCGUUUCUUGCCGGCCCUGGGAGUCUGCUAUGGCGUUCCCUCACCUACAACAGCCUAGUUUCCUUCUGGCUAGCCUGAAAGCUGACUCUAUAAAUAAGCCCUUUGCACAACGUUG` is reported as 0.204 ratio.

Study 4
Target: CCND2, cyclin fold, Cln2 fusion (human)
Method: yeast growth competition, sequencing
Sample: yeast
Notes: weak parent motif
Relative to: not given
Reading: higher = stronger binding
Starting sequence: SLBP docking peptide (human); ARYKRKLLINDFG
`ARYQRKLLINDFG [K4Q]` — result for “normalised enrichment score”: 0.296.
`ARYKRKLIINDFG [L8I]` — result for “normalised enrichment score”: 0.228.
Under “normalised enrichment score”, `PRYKRKLLINDFG [A1P]` is recorded as 0.0927.
`YRYKRKLLINDFG [A1Y]` — result for “normalised enrichment score”: 0.142.
`ARYKRDLLINDFG [K6D]` — result for “normalised enrichment score”: -0.0822.
Under “normalised enrichment score”, `ARYKRKLLIHDFG [N10H]` is recorded as -0.156.
Under “normalised enrichment score”, `AEYKRKLLINDFG [R2E]` is recorded as 0.357.
Under “normalised enrichment score”, `ARYKRQLLINDFG [K6Q]` is recorded as 0.676.
For `WRYKRKLLINDFG [A1W]`, “normalised enrichment score” read 0.394.
Under “normalised enrichment score”, `ARYKRKYLINDFG [L7Y]` is recorded as 0.283.
For `ARYKRKPLINDFG [L7P]`, “normalised enrichment score” read 0.329.
`ANYKRKLLINDFG [R2N]` — result for “normalised enrichment score”: 0.501.
`ARYKRKLLINVFG [D11V]` — result for “normalised enrichment score”: 0.327.
For `ARYKRKLMINDFG [L8M]`, “normalised enrichment score” read 0.634.

Mixed results
The fold induction of `PhoQ, residues 284 288 289 292 302 303 AAQSYM` is reported as 19.7 and 10.5 (PhoP, residues 12 14 15 18 19 LWHSL (Escherichia coli, UniProt P23836); Sort-seq, refers to: YFP reporter; E. coli; PhoQ-PhoP variant library, with: 10 µM Mg2+; relative to: high Mg2+ state, higher = stronger signaling).

Repeated from above (study 2):
`TTTGATATCAGACTGGATTAGTGCTAG` gave a log fluorescence of -0.075 z-score.
`TTAGGACTGCTTTTCCTGTAGTGCTAG` gave a log fluorescence of 0.976 z-score.
For `TTAGATATCGGGTGTCGATTAGTGCTA`, the log fluorescence was -0.111 z-score.
With `AACTCTCTAATTTTGAGACTGTGCTAG` the log fluorescence was 0.178 z-score.
